{"data": "Published values pooled from the literature", "note": "Parts stem from different laboratories: compare values within a part only. Changes are numbered by the printed parent chain."}
{"data": "Set 1", "target": "CCNB3, cyclin fold, Cln2 fusion (human)", "method": "yeast growth competition, sequencing", "matrix": "yeast", "setting": "weak parent motif", "baseline": "not given", "direction": "higher = stronger binding", "starting sequence": "PKN2 docking peptide (human); VSAVQKLDFSDTM; partner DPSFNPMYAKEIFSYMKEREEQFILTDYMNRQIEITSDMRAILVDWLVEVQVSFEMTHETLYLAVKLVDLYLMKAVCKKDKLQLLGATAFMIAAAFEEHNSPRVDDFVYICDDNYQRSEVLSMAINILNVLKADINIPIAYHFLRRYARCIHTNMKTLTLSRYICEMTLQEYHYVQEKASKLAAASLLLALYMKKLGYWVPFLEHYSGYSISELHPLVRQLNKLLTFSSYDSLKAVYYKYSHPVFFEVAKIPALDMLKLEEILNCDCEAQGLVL"}
{"Substitution": "F9L", "normalised enrichment score": 0.111}
{"Substitution": "L7H", "normalised enrichment score": 0.173}
{"Substitution": "V4M", "normalised enrichment score": 0.344}
{"Substitution": "D8T", "normalised enrichment score": 0.0952}
{"Substitution": "D11K", "normalised enrichment score": -0.0551}
{"Substitution": "D8L", "normalised enrichment score": 0.379}
{"Substitution": "D11I", "normalised enrichment score": -0.442}
{"Substitution": "V1R", "normalised enrichment score": -0.174}
{"Substitution": "A3D", "normalised enrichment score": -0.301}
{"Substitution": "S2N", "normalised enrichment score": -0.0644}
{"Substitution": "V4Y", "normalised enrichment score": 0.172}
{"Substitution": "V1S", "normalised enrichment score": 0.504}
{"Substitution": "D8S", "normalised enrichment score": 0.472}
{"Substitution": "V1L", "normalised enrichment score": 0.00929}
{"Substitution": "L7S", "normalised enrichment score": 0.131}
{"Substitution": "D8G", "normalised enrichment score": 0.159}
{"Substitution": "L7K", "normalised enrichment score": 0.197}
{"Substitution": "L7R", "normalised enrichment score": 0.101}
{"Substitution": "M13E", "normalised enrichment score": 0.101}
{"Substitution": "V1E", "normalised enrichment score": 0.174}
{"Substitution": "V4G", "normalised enrichment score": 0.0765}
{"Substitution": "S2G", "normalised enrichment score": 0.1}
{"Substitution": "A3M", "normalised enrichment score": 0.176}
{"Substitution": "F9Y", "normalised enrichment score": 0.45}
{"Substitution": "D11P", "normalised enrichment score": 0.0853}
{"data": "Set 2", "target": "Prothrombin, mature alpha-thrombin (F2, Homo sapiens, UniProt P00734)", "method": "aptamer microarray, sandwich", "form": "DNA with 2'F-ANA", "matrix": "in vitro", "tested at": "200 nM", "setting": "whole 15-mer aptamer, many near background", "with": "Cy3 exosite-II aptamer, 400 nM", "direction": "higher = stronger binding", "oligonucleotide": "GGTTGGTGTGGTTGG"}
{"Modification": "2'F-ANA at 2 3 6 7 8 12 13 15", "mean fluorescence intensity [a.u.]": 971}
{"Modification": "2'F-ANA at 1 4 5 7 9 13", "mean fluorescence intensity [a.u.]": 47.6}
{"Modification": "2'F-ANA at 2 7 9 10 13 14 15", "mean fluorescence intensity [a.u.]": 84.1}
{"Modification": "2'F-ANA at 1 7 9 10 12 14", "mean fluorescence intensity [a.u.]": 45.6}
{"Modification": "2'F-ANA at 4 5 7 11 12 15", "mean fluorescence intensity [a.u.]": 95.2}
{"Modification": "2'F-ANA at 3 4 5 7 8 9 10 13 14", "mean fluorescence intensity [a.u.]": 48.5}
{"Modification": "2'F-ANA at 1 4 5 6 7 8 9 11 13", "mean fluorescence intensity [a.u.]": 62.9}
{"Modification": "2'F-ANA at 4 7 9 10 11 12 14 15", "mean fluorescence intensity [a.u.]": 63.9}
{"Modification": "2'F-ANA at 1 2 3 5 6 8 10 11 12 13 14 15", "mean fluorescence intensity [a.u.]": 88.1}
{"Modification": "2'F-ANA at 2 3 6 7 8 10 11 12 13 14", "mean fluorescence intensity [a.u.]": 299}
{"Modification": "2'F-ANA at 1 2 3 5 8 12 13 14", "mean fluorescence intensity [a.u.]": 45.6}
{"Modification": "2'F-ANA at 1 2 5 9 11 15", "mean fluorescence intensity [a.u.]": 52.3}
{"Modification": "2'F-ANA at 1 2 4 11 14", "mean fluorescence intensity [a.u.]": 49.3}
{"Modification": "2'F-ANA at 1 2 4 10 11 13 14", "mean fluorescence intensity [a.u.]": 44.4}
{"Modification": "2'F-ANA at 1 4 12", "mean fluorescence intensity [a.u.]": 307}
{"Modification": "2'F-ANA at 1 2 4 6 7 9 10 14 15", "mean fluorescence intensity [a.u.]": 50.3}
{"Modification": "2'F-ANA at 2 3 4 5 8 10 11 12 13 14", "mean fluorescence intensity [a.u.]": 72.3}
{"Modification": "2'F-ANA at 1 4 5 8 9 10 13 14 15", "mean fluorescence intensity [a.u.]": 47.3}
{"Modification": "2'F-ANA at 2 5 7 9 13 15", "mean fluorescence intensity [a.u.]": 54.5}
{"Modification": "2'F-ANA at 1 2 3 5 8 12 13 14 15", "mean fluorescence intensity [a.u.]": 55.3}
{"Modification": "2'F-ANA at 2 3 4 6 7 9 10 12 13 14 15", "mean fluorescence intensity [a.u.]": 145}
{"Modification": "2'F-ANA at 3 4 8 9 10 13", "mean fluorescence intensity [a.u.]": 222}
{"Modification": "2'F-ANA at 3 7 8 9 11 13 14", "mean fluorescence intensity [a.u.]": 587}
{"Modification": "2'F-ANA at 3 7 8 12 14", "mean fluorescence intensity [a.u.]": 834}
{"data": "Set 3", "target": "ABI1, truncated, D143A, DHFR fusion (Arabidopsis thaliana)", "method": "DHFR PCA, deep sequencing", "matrix": "yeast", "setting": "methotrexate growth selection, single substitutions", "with": "(+)-ABA 0.11 µM", "baseline": "wild-type fitted maximum", "direction": "higher = stronger binding", "starting sequence": "PYL1, truncated, DHFR fusion (Arabidopsis thaliana); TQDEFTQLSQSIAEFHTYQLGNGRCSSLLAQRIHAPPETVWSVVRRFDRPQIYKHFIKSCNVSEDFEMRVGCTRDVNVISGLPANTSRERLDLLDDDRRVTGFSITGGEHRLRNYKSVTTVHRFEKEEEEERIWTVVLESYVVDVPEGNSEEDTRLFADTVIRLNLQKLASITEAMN"}
{"Substitution": "E128L", "relative binding score": "10.9%"}
{"Substitution": "V76N", "relative binding score": "-7.77%"}
{"Substitution": "W134N", "relative binding score": "9.95%"}
{"Substitution": "E89G", "relative binding score": "4%"}
{"Substitution": "E131P", "relative binding score": "63.2%"}
{"Substitution": "E139T", "relative binding score": "27.4%"}
{"Substitution": "S104H", "relative binding score": "-1.8%"}
{"Substitution": "T135Q", "relative binding score": "-3.42%"}
{"Substitution": "Q31K", "relative binding score": "19.2%"}
{"Substitution": "F47E", "relative binding score": "-3.3%"}
{"Substitution": "Y53G", "relative binding score": "-3.55%"}
{"Substitution": "Y53N", "relative binding score": "-4.96%"}
{"Substitution": "R123P", "relative binding score": "30%"}
{"Substitution": "L138K", "relative binding score": "-8.27%"}
{"Substitution": "R88D", "relative binding score": "-1.14%"}
{"Substitution": "W41K", "relative binding score": "-8.03%"}
{"Substitution": "E64R", "relative binding score": "27.4%"}
{"Substitution": "L28S", "relative binding score": "-0.149%"}
{"Substitution": "L112K", "relative binding score": "-0.356%"}
{"data": "Set 4", "target": "RNA binding protein fox-1 homolog 2, RRM domain, GST-SBP tag (RBFOX2, Homo sapiens, UniProt O43251-10, residues 100-194)", "method": "RNA Bind-n-Seq", "form": "RNA", "matrix": "in vitro", "tested at": "365 nM", "setting": "natural RNA segment, single round, ends assumed", "baseline": "no-protein control", "direction": "higher = stronger binding", "shared flanks, not repeated": "GGGAGUUCUACAGUCCGACGAUC … UGGAAUUCUCGGGUGCCAA"}
{"Oligonucleotide": "UUUGCACUUUGAUGGGCAUUAAAAAAAAUAGCCCUCACAAGAUAGUAACCUCAAAUUCCUGUUCUUGGUUCUUAUUUAAGCAUGGGUCUUCAUUCAACUCAGAAGGCCUG", "RBNS enrichment (R)": 0.68}
{"Oligonucleotide": "ACCCCCCACCAAUGUCUUAAUCCCACAUUUUCUUCACAACUUUUAGCAUCAGCUCAGACCGUGGGGUUCCACUGGGUAUUGGGAAUUAGGCUCCCCCACUAGCUUUCAGG", "RBNS enrichment (R)": 0.627}
{"Oligonucleotide": "CCCUGCAUCCAGGAUGGUACCAGCUCCCGCCCCUCGCCCCCCACCUCCACAGGUGCCUUAAAGGGCCCUCGUCCACCCAAGGUGGGGGGCAGGGGCCCUCACUCUCCGGC", "RBNS enrichment (R)": 0.383}
{"Oligonucleotide": "ACAAAAAAUGUUUAAUUUAUGCAACAAGCAUGUUUGUGCAAAUUUCAUGGGACUUUAAAAAGAAUAAGUAUUUGAGAAAAUAUCUGGUUCACUUACACUACAUUUACUGU", "RBNS enrichment (R)": 5.59}
{"Oligonucleotide": "AAAGGUAAAUAACCUAGGUUCAGCUUUUGCUUAAACAUUAAAUAUCUUUUCCAUUUUUUAAUGUUUGUAAGCUAGAUAUGCCAGCUUUGUUUCUACAUUGCAACCAAAAA", "RBNS enrichment (R)": 0.554}
{"Oligonucleotide": "AGGUCAGUUCUAUGUGGUGUGGCAGUUACAUAGGAUGAGUACAUUUUCAGAGCAGCUAGAUGUCUGCAUGUGUGCAUAUAUGCAUGCCCACUCCUUUCAUAUACGUUUGU", "RBNS enrichment (R)": 2.16}
{"Oligonucleotide": "UGUAAAAAUAAAAAAAAAAUAUUUUUAGCAGAACAGGACUUACAGGGUCAUUGUCCCCACAAUGUGCCAGUCGACUAUUUGCACUUACCUUGUCCUAUAUAUCCGUACGG", "RBNS enrichment (R)": 0.381}
{"Oligonucleotide": "CCUAACUAAAGUACUUUCACAAACACUAACAUUCAGAAGGAUGUUGAGAAAGCAAGAUCUAAUCUGAAAUGGAUGACAUUAACAAGCUCCUUAAGCCCCUGAAGUUUUAU", "RBNS enrichment (R)": 0.376}
{"data": "Other studies, line by line"}
{"Molecule": "PhoQ, residues 284 288 289 292 302 303 ALVSVA", "target": "PhoP, residues 12 14 15 18 19 NQFFI (Escherichia coli, UniProt P23836)", "test": "Sort-seq, item: YFP reporter", "system": "E. coli", "setting": "PhoQ-PhoP variant library, with: 10 µM Mg2+", "scale": "baseline: high Mg2+ state, higher = stronger signaling", "quantity": "fold induction", "value": 9.19}
{"note": "For quick reference, copied from above (set 3):"}
{"Substitution": "E131P", "relative binding score": "63.2%"}
{"Substitution": "E139T", "relative binding score": "27.4%"}
{"Substitution": "S104H", "relative binding score": "-1.8%"}
{"Substitution": "T135Q", "relative binding score": "-3.42%"}
{"Substitution": "Q31K", "relative binding score": "19.2%"}
{"Substitution": "F47E", "relative binding score": "-3.3%"}
{"Substitution": "Y53G", "relative binding score": "-3.55%"}
{"Substitution": "Y53N", "relative binding score": "-4.96%"}
{"Substitution": "R123P", "relative binding score": "30%"}
{"Substitution": "L138K", "relative binding score": "-8.27%"}
